# Measured values pooled from the literature.
# Compare with care: the assays were run in different laboratories. “And” joins repeats or separate records; there may be more than shown. ± marks the error that the study gave.
# HTR7: 5-hydroxytryptamine receptor 7 (HTR7, Homo sapiens, UniProt P34969)
# TGFBR2: TGF-beta receptor type-2 (TGFBR2, Homo sapiens, UniProt P37173)
# gag-pol integrase: Gag-Pol polyprotein, integrase (gag-pol, Human immunodeficiency virus type 1 group M subtype B, UniProt P04585)
# nusB with NusE: Transcription antitermination protein NusB, with NusE (nusB, Bacillus subtilis, UniProt P54520)
# HTR2A: 5-hydroxytryptamine receptor 2A (HTR2A, Homo sapiens, UniProt P28223)
# HTR2C: 5-hydroxytryptamine receptor 2C (HTR2C, Homo sapiens, UniProt P28335)
SMILES,target,assay,system,conditions,inhibition
Cc1ccc(OC[C@H]2CN(CCN3CCc4ccccc43)CCO2)cn1,HTR7,radioligand binding,,"concentration not given, with: [3H]LSD",48.2%
CN(C(=O)n1cnc(-c2ccc[n+]([O-])c2)c1)C1CCCCC1,HTR7,,,10 µM,-11.6%
C[C@]12CC[C@H]3[C@@H](CNC4=CC(=O)CC[C@@]43C)[C@@H]1CC[C@@H]2C(=O)O,"3 beta-hydroxysteroid dehydrogenase/Delta 5-->4-isomerase (Mycobacterium tuberculosis, UniProt P9WQP7)",inhibitor,,up to 200 µM,no inhibition
Fc1ccc(-c2c(-c3ccncc3)ncn2-c2ccccc2)cc1,TGFBR2,inhibitor,,1 µM,28%
Cn1cc(-c2ccccc2)c2ccc(-c3ccsc3)nc21,gag-pol integrase,"strand transfer, inhibitor",HIV-1,10 µM,41.6%
CC(=O)c1ccc(OC/C=C\COc2ccc(C(C)=O)cc2)cc1,nusB with NusE,"NusE binding, inhibitor, competitive ELISA",,25 µM,17%
O=c1oc(-c2cccnc2)nc2ccccc12,"Cathepsin G (CTSG, Homo sapiens, UniProt P08311)","enzyme activity, inhibitor, chromogenic substrate hydrolysis",,"concentration not given, pH 7.4, 37 °C",inhibited
CCNC(=O)c1cnn(-c2ccc(-n3ccc(Cl)c(Cl)c3=O)cc2)c1C(F)(F)F,"Short transient receptor potential channel 7 (Homo sapiens, UniProt Q9HCX4)","ion current, inhibitor, whole-cell patch clamp",,"10 µM, with: carbachol",inhibited
COc1cc(C(=O)NS(=O)(=O)c2ccccc2C)ccc1Cc1cn(C)c2ccc(NC(=O)OC3CCCC3)cc12,"LRRC8A/LRRC8C (Homo sapiens, UniProt Q8IWT6+Q8TDW0, E6A)","VRAC current, inhibitor, whole-cell patch clamp",HCT116 LRRC8-/- cells,30 µM,95.1%
Fc1ccc(-c2ncn(-c3ccccc3)c2-c2ccncc2)cc1,TGFBR2,inhibitor,,1 µM,40%
CN1CCN(c2cc(-c3ccncc3)c(-c3ccc4ccccc4c3)nn2)CC1,"GHSR (Homo sapiens, UniProt Q92847)","antagonist, FLIPR",,10 µM,-19.7%
COc1ccc(Cn2cc(-c3ccsc3)c3ccc(-c4ccncc4)nc32)cc1,gag-pol integrase,"strand transfer, inhibitor",HIV-1,10 µM,15.9%
O=C(C[C@@H](C(F)F)n1ccc(F)n1)N1CCC(O)(Cn2cnc3c(cnn3-c3ccc(F)cc3)c2=O)CC1,"USP7 (Homo sapiens, UniProt Q93009)","enzyme activity, inhibitor",,0.05 µM,89.4% and 77.1%
COc1ccc2c(c1)CN(CCCN1CCN(c3ccccc3OC)CC1)C2=O,HTR7,radioligand binding,,"concentration not given, with: [3H]LSD",84.8%
CC[C@@H]1[C@H](F)C(=O)N[C@@H]1COc1nccc2cc(C(N)=O)c(OC)cc12,"CAMK2B (Homo sapiens, UniProt Q13554)","ATP-site probe binding, ActivX profiling",THP-1 cell lysate,"0.04 mM, Lys1 site",12.8%
COc1cc2c(cc1OC)C(=O)C(CC1CCN(Cc3ccccc3)CC1)C2 (centres unmarked),HTR7,radioligand binding,,"concentration not given, with: [3H]LSD",35.9%
NC/C(=C\F)COc1cccc(Cn2c(=S)[nH]c(=O)c3[nH]cnc32)c1,"AOC3 (Homo sapiens, UniProt Q16853)","H2O2 production, Amplex Red",,"1 µM, recombinant human enzyme",100% and 103%
Cc1ccc(-n2nc(C)c3conc3c2=O)cc1,"GRM2 (Homo sapiens, UniProt Q14416)","cAMP accumulation, antagonist",,"10 µM, with: glutamate 1 µM, forskolin",-37%
CC(C)c1noc2ncc(C(=O)c3ccccc3O)cc12,"SCN4A (Homo sapiens, UniProt P35499)","ion current, whole-cell patch-clamp",,"10 µM, hNaV1.4",1.74%
O=C(NO)c1ccc(CN2CCCCc3ccccc32)c(F)c1,HTR2A,"radioligand binding, PDSP radioligand binding",,10 µM,4.85%
CCNC(=O)Nc1ccc(OCc2cccc(COc3ccc(NC(=O)NCC)cc3)c2)cc1,nusB with NusE,"NusE binding, inhibitor, competitive ELISA",,25 µM,10%
c1cncc(OC[C@@H]2CN(CCN3CCc4ccccc43)CCO2)c1,HTR2C,radioligand binding,,"concentration not given, with: [3H]mesulergine",40.8%
O=C(O)c1cn(C2CC2)c2cc(N3CCNCC3)c(F)cc2c1=O,"gyrA (Escherichia coli K-12, UniProt P0AES4)","enzyme activity, inhibitor, DNA supercoiling",,1 µM,55.5%
OCCCN1CC[C@@H]2C[C@H]1c1cc(-c3ccc(C(F)(F)F)cc3)ccc12,HTR2C,"radioligand binding, PDSP competition binding",,10 µM,< 50%
CC(C)NC(=O)COc1cccc(-c2nc(Nc3ccc4[nH]ncc4c3)c3ccccc3n2)c1,"UGT1A1 (Homo sapiens, UniProt P22309)",inhibitor,recombinant microsomes,0.1-100 µM,inhibited
c1cc2cc(C3=NCCN3)ccc2cc1C1=NCCN1,"Breakpoint cluster region protein, GAP domain (Homo sapiens, UniProt P11274)","GAP activity, inhibitor",,"10 µM, selectivity counter screen",-2.16%
O=C(NO)c1cncc(OS(=O)(=O)Oc2ccc(C(F)(F)F)cc2)c1,"HDAC4 (Homo sapiens, UniProt P56524)",,,10 µM,38%
COc1cccc(OC[C@@H]2CN(CC(=O)N3CCc4ccccc43)CCO2)c1,HTR2A,radioligand binding,,"concentration not given, with: [3H]ketanserin",52.1%
COc1ccc(-n2nc(OCCCN3CCCCC3)ccc2=O)cc1,NMDA receptor,radioligand binding,,1.0 µM,32.1 ± 3.44%
O=C(CN1CCO[C@@H](COc2cccnc2)C1)N1CCc2ccccc21,HTR7,radioligand binding,,"concentration not given, with: [3H]LSD",1%
Cc1ccc(-c2cn(C)c3nc(Cl)ccc23)cc1,gag-pol integrase,"strand transfer, inhibitor",HIV-1,10 µM,41%
COc1ccc2c(c1)C(=O)N(CCCN1CCN(c3ccccc3OC)CC1)C2,HTR7,radioligand binding,,"concentration not given, with: [3H]LSD",88.4%
CCS(=O)(=O)c1nc(S(=O)(=O)c2ccccc2Cl)c(N2CCN(C)C(=O)[C@H]2C)s1,HTR7,,,10 µM,7%
O=C(CN1CCO[C@H](COc2ccccc2)C1)N1CCc2ccccc21,HTR7,radioligand binding,,"concentration not given, with: [3H]LSD",10.4%
Cc1cc(-c2ccnc3[nH]cc(F)c23)cc(F)c1[C@@]1(O)[C@H](C)CN(C2CCS(=O)(=O)CC2)C[C@@H]1C,ROCK1 and ROCK2,"ATP probe binding, KiNativ, item: Lys2 site",HEK293T cell lysate,1 µM,-0.1%

# Excerpt of the above:
SMILES,target,assay,system,conditions,inhibition
Cc1ccc(-c2cn(C)c3nc(Cl)ccc23)cc1,gag-pol integrase,"strand transfer, inhibitor",HIV-1,10 µM,41%
COc1ccc2c(c1)C(=O)N(CCCN1CCN(c3ccccc3OC)CC1)C2,HTR7,radioligand binding,,"concentration not given, with: [3H]LSD",88.4%
CCS(=O)(=O)c1nc(S(=O)(=O)c2ccccc2Cl)c(N2CCN(C)C(=O)[C@H]2C)s1,HTR7,,,10 µM,7%
O=C(CN1CCO[C@H](COc2ccccc2)C1)N1CCc2ccccc21,HTR7,radioligand binding,,"concentration not given, with: [3H]LSD",10.4%
